Results collected from several papers.
Protocols differ between the studies behind these lines. Numbers after ± are the reported error.
Organism: Plasmodium falciparum

With `CCNCC#CCNc1ccnc2cc(Cl)ccc12` the IC50 was 30 nM (parasite growth, SYBR Green I; 3D7; single experiment).
`Cc1cc(C(=O)N[C@@H](CC(=O)NC(C)(C)C)C(=O)NCCNC(=O)c2cc(-c3ccccc3)ccn2)no1` gave an EC50 of > 10000 nM (female gamete activation; NF54; 48 h).
The IC50 of `COc1cncc(-c2cc(F)cc(CNC(=O)c3cc(N4CC[C@@](C#N)(C5CC5)C4=O)cc(C)n3)c2)c1` is reported as 17 nM (parasite growth; cPRS conditional knockdown line; 72 h, together with: 3 nM anhydrotetracycline).
With `CC(C)(C)NC(=O)CC(NC(=O)CCc1ccccc1)C(=O)NCCNC(=O)c1cccc(-c2ccccc2)c1` (stereo not shown) the EC50 was 65.1 nM (parasite growth; NF54; 24 h, gametocyte).
With `Cc1cc(N2CCC(CO)(C3CC3)C2=O)cc(C(=O)NCc2cc(F)cc(-c3cnn(C)c3)c2)n1` (stereo not shown) the IC50 was 192 nM (parasite growth; conditional knockdown control line; 120 h, together with: 50 nM anhydrotetracycline).
The IC50 of `COc1cccc2c(-c3ccc(O)c4c3CCNC4)ccc(O)c12` is reported as 183 ± 14 nM (asexual parasite proliferation, SYBR Green I fluorescence; 7G8).
`Cc1cc(N2CC[C@@](C#N)(C3CC3)C2=O)cc(NC(=O)Cc2ccccc2)n1` gave an IC50 of 48 nM (parasite growth; conditional knockdown control line; 72 h, together with: 3 nM anhydrotetracycline).
The IC50 of `CC1=N[C@H](C)Cc2c(-c3ccc4ccccc4c3)ccc(O)c21` is reported as 770 ± 310 nM (asexual parasite proliferation, SYBR Green I fluorescence; K1).
`CCc1nc(N)nc(N)c1-c1ccc(Cl)cc1` has a lag phase of 24 h (3D7; 10 × EC50, 120 h).
For `COc1cccc2c(-c3ccc(O)c4c3CCN=C4)ccc(OC(C)C)c12`, the IC50 was 338 ± 54 nM (asexual parasite growth, SYBR Green I; clinical isolate SB_04, Malawi).
`COCCN(C)CC(=O)NC(Cc1ccc(-c2ccccc2)cc1)B(O)O` (stereo not shown) has an IC50 of 172 ± 87 nM ([3H]-hypoxanthine incorporation; NF54).
`Cc1cc(C(=O)N[C@@H](CC(=O)NC(C)(C)C)C(=O)NCCNC(=O)c2cccc(-c3ccn[nH]3)c2)no1` gave an EC50 of 229 nM (parasite growth; NF54; 72 h, gametocyte).
With `COc1cccc2c(-c3ccc(O)c4c3C[C@@H](C)N[C@@H]4C)c(C)cc(O)c12` the IC50 was 12.1 ± 1.1 nM (asexual parasite growth, SYBR Green I; clinical isolate SB_04, Malawi).

Repeated from above:
`Cc1cc(N2CC[C@@](C#N)(C3CC3)C2=O)cc(NC(=O)Cc2ccccc2)n1` gave an IC50 of 48 nM (parasite growth; conditional knockdown control line; 72 h, together with: 3 nM anhydrotetracycline).
`COCCN(C)CC(=O)NC(Cc1ccc(-c2ccccc2)cc1)B(O)O` (stereo not shown) has an IC50 of 172 ± 87 nM ([3H]-hypoxanthine incorporation; NF54).
